Measured values from different studies.
Lines come from different studies, so protocols differ. “And” joins repeats or separate records; there may be more than shown.

With CN1CCN(C(=O)c2cn(C34CCCC(C)(CCC5C3CC5(C)C)C4)nn2)CC1 (stereo not drawn) the inhibition was < 50% (HT-29; cell growth or viability, CCK-8; 10 µM).
For Cn1ncc2cc(-c3cncc(Cl)c3N3CCC4(CCNC4=O)CC3)ccc21, “log2 fold change” read -2.74 (LS174T; gene expression, microarray, measured: GSDMA mRNA; concentration not given, 24 h; relative to: untreated cells).
The EC50 of CCC(CC)Nc1ncc2c(/C=C/C(=O)N3CCC(OC)CC3)nn(Cc3cccc(C(F)(F)F)c3)c2n1 is reported as 7.94 µM (FLO-1; cell growth or viability, resazurin; 5 days).
For CCC(=CCc1c(O)cc2c(c1O)C(=O)CC(c1cccc(O)c1OC)O2)CC (stereo not drawn), the inhibition was 93.5% (HeLa; cell growth or viability, MTT; 100 µM, 48 h).
For CNS(=O)(=O)Nc1nccc(Cc2c(C)c3ccc(Oc4ncccc4F)cc3oc2=O)c1F, the IC50 was 91.1 nM (CW-2; cell viability; 7 days).
CC12CCCC(NS(=O)(=O)C3CCN(Cc4ccccc4)C3)(C1)C1CC(C)(C)C1CC2 (stereo not drawn) gave an inhibition of 55.2% (HT-29; cell growth or viability, CCK-8; 10 µM).
CCc1c(-c2ccc3[nH]ncc3c2)cnc(N)c1-c1ccc(O)cc1 has a viability of 114% (CHP-212 resistant sublines, USP7 V517F heterozygous; 1.562 µM).
O=C(C[Se]C(=O)c1cccnc1Nc1cccc(C(F)(F)F)c1)Nc1cccc(C(F)(F)F)c1 has a TGI of 3.32 µM (NCI60 NSCLC subpanel mean; cell growth).
The colony count of COc1ccccc1-c1ccncc1C(=O)Nc1nnc(OCc2ccc(Cl)cc2)s1 is reported as 27 and 50 and 30 and 38 and 47 and 54 (Brca1 Δ11/Δ11 MEFs sgGFP; 5 µM).
For O=S(=O)(N[C@H]1CCO[C@@H](C2c3ccc(F)cc3CCc3cc(F)ccc32)C1)c1ccc(OC(F)(F)F)cc1, cell proliferation read “decreased” (D425; CellTiter; concentration not given, 72 h).
COc1cc(N2CCN(C(=O)C3CCCN3)CC2)ccc1Nc1ncc(Cl)c(Nc2ccccc2P(C)(C)=O)n1 (stereo not drawn) has a viability of 80% (NCI-H3122; CCK-8; 5 nM, 48 h).
CN1CCCNC(=O)c2cccc(c2)C(=O)NCCCN(C)CCCNc2cccc3c2C(=O)c2cccc(c2C3=O)NCCC1: “log2 fold change” 1.42 (SAS; RNA-Seq, measured: LMLN mRNA; 1 µM, 6 h; relative to: untreated cells).
CC(=O)N1C[C@H](O)C[C@H]1C(=O)N[C@@H](CC(C)C)C(=O)N[C@@H](C)C(=O)N[C@@H](CC(=O)O)C(=O)COC(=O)c1c(C)cccc1C has a cell lysis of 85% and 91.6% (THP-1 cells, LPS-primed; pyroptosis, LDH release; 25 µM, LPS 1 µg/mL, 4 h, together with: nigericin 5 µM, 2 h).
The inhibition of COc1ccc(C2CC(=O)c3c(cc(O)c(CC=C(C)C)c3O)O2)cc1 (stereo not drawn) is reported as 4.73% (HeLa; cell growth or viability, MTT; 0.781 µM, 48 h).
COc1ccc(CNC[C@@](O)(COCc2ccccc2)[C@@H]2CC[C@@H](C)C[C@H]2OCc2ccccc2)cc1 gave an inhibition of 99% (A2780; cell growth or viability, MTT; 10 µM, 72 h).
Under “log2 fold change”, Cc1ncsc1-c1ccc(C(C)NC(=O)C2CC(O)CN2C(=O)C(NC(=O)CCCCCCCCCCN2CCCC(Nc3ncc(Cl)c(Nc4ccccc4S(=O)(=O)C(C)C)n3)C2)C(C)(C)C)cc1 (stereo not drawn) is recorded as -1.83 (22Rv1; RNA-seq, measured: PLCD4 mRNA; concentration not given; relative to: DMSO).
The fold regulation of CCN(CC)CC(=O)Nc1cccc(-n2cc(-c3ccc4ccc(-c5cn(-c6cccc(NC(=O)CN(CC)CC)c6)nn5)cc4c3)nn2)c1 is reported as 1.02 (RCC4; PCR array, measured: HGF; 5 x IC50, 2 h, normoxia; relative to: untreated).
CC(C)c1ccc(N(C)c2ccc3c(c2)OCC[C@H]3CNc2cnccc2C(=O)O)cc1 has an IC50 of 140 nM (SK-MEL-2; cell viability, CellTiter-Glo; 7 days).
